Published values pooled from the literature.
A part holds a random share of what one study measured.
Sequence of UniProt Q6PHR2 (whole entry, looked up): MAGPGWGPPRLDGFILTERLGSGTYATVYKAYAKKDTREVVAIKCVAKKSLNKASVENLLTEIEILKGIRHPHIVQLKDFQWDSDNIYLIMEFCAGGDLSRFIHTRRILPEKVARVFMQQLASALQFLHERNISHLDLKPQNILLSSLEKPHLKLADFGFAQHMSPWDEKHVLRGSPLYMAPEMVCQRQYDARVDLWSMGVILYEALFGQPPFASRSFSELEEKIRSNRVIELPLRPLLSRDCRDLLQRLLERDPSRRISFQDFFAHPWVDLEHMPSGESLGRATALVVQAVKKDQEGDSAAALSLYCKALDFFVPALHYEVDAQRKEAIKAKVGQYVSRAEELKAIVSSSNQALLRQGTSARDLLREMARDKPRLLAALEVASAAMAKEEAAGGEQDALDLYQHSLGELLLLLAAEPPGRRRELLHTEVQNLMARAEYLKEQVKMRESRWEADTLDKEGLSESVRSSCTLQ
Sequence of UniProt Q92630 (whole entry, looked up): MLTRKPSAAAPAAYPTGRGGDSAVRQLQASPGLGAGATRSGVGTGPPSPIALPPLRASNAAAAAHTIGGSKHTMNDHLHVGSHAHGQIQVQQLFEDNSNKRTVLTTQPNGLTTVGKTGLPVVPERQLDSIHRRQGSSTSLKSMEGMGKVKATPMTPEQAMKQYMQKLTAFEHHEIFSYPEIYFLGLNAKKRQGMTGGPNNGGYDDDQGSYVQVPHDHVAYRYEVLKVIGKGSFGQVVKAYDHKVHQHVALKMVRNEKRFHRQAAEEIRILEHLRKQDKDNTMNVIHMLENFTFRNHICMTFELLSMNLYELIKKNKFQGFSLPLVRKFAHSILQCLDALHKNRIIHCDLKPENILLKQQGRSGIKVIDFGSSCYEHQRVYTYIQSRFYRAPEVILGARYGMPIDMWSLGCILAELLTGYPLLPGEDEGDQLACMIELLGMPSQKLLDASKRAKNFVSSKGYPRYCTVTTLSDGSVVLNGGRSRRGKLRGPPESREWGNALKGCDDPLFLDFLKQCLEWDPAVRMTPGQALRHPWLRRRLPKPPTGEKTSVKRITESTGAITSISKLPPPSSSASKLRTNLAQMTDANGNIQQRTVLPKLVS
Sequence of UniProt P11802 (whole entry, looked up): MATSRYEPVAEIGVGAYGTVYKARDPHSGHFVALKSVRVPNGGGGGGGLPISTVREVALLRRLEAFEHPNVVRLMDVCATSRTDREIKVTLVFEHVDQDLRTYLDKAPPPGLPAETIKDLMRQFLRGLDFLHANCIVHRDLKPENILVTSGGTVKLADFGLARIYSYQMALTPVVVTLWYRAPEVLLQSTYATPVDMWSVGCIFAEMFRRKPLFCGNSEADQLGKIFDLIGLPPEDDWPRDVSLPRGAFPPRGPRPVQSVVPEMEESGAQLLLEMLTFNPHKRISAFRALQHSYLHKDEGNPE
Sequence of UniProt Q6XUX3 (whole entry, looked up): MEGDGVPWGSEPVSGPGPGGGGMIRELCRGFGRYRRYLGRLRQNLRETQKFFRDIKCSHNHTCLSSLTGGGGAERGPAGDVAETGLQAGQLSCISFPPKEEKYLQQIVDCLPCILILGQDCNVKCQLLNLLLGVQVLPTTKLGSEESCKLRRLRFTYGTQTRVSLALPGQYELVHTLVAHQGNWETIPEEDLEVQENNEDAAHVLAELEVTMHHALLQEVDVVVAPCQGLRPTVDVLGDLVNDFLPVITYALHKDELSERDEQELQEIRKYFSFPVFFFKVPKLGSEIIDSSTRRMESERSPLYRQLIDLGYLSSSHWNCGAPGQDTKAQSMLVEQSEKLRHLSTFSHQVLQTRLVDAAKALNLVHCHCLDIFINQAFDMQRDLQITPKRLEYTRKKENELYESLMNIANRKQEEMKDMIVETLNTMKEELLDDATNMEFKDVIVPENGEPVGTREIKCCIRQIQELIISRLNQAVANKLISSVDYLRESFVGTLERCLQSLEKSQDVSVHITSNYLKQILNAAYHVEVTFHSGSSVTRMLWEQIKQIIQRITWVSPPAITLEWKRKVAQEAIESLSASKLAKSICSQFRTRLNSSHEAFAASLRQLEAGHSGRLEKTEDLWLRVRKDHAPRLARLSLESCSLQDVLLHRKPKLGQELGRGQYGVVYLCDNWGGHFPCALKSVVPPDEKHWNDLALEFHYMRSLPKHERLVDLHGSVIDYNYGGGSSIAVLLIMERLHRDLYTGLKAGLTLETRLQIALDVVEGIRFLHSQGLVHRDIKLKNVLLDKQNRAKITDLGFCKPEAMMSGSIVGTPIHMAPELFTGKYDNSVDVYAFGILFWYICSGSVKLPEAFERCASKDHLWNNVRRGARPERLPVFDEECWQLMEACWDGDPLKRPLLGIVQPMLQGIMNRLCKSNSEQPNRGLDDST
Sequence of UniProt Q86UE8 (whole entry, looked up): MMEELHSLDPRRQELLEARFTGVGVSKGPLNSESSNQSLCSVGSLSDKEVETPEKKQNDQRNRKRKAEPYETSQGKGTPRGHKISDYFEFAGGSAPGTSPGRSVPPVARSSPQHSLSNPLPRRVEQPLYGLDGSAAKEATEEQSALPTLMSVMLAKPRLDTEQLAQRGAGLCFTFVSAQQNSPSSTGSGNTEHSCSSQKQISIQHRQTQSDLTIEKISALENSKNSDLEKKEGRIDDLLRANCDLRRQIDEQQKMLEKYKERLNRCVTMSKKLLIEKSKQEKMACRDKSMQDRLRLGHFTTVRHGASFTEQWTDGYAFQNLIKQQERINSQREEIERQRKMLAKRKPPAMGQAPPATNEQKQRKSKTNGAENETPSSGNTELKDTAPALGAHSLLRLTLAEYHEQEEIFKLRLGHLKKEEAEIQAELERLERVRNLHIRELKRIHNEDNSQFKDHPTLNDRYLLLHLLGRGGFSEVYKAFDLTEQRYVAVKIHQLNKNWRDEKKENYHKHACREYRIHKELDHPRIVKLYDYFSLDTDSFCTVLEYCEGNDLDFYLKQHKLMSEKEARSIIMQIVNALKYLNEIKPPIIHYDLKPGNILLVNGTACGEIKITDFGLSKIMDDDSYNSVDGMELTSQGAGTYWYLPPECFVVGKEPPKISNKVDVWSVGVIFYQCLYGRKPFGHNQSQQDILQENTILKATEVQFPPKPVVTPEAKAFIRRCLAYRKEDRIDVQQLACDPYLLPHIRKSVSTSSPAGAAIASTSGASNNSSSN
Sequence of UniProt Q8WU08 (whole entry, looked up): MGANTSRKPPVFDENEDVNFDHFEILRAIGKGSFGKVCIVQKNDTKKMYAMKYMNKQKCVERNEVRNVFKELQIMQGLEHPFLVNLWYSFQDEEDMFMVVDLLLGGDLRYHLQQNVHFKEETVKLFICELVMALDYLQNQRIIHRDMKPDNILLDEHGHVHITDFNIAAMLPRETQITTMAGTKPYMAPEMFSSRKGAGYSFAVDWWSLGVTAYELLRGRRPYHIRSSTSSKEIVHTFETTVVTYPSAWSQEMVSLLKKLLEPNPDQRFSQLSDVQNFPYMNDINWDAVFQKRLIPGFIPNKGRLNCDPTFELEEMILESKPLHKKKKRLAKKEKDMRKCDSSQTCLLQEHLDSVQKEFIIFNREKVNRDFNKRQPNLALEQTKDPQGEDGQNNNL
Sequence of UniProt P50613 (whole entry, looked up): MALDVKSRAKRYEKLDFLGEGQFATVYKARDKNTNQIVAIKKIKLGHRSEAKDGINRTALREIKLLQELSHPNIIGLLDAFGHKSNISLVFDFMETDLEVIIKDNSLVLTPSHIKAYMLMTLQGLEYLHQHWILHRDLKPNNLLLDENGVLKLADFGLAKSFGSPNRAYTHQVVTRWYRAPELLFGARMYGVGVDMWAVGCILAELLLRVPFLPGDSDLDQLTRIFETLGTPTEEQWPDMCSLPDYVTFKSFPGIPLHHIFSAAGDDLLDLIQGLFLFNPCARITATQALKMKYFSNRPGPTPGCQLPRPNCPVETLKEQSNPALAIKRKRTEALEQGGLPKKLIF
Sequence of UniProt P52564 (whole entry, looked up): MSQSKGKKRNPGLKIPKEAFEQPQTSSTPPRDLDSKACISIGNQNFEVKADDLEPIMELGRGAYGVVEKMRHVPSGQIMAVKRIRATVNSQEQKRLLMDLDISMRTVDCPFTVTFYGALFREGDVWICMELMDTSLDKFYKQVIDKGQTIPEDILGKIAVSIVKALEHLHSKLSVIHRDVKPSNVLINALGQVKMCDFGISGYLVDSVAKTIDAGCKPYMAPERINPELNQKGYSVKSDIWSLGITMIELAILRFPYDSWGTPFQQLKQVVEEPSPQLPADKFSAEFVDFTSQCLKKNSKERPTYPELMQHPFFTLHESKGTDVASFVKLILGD

Block 1 — effect on: enzyme activity; action: inhibitor; tested at: 0.5 µM; relative to: control
Target: Serine/threonine-protein kinase B-raf (BRAF, Homo sapiens, UniProt P15056)
Sequence of UniProt P15056 (whole entry, looked up): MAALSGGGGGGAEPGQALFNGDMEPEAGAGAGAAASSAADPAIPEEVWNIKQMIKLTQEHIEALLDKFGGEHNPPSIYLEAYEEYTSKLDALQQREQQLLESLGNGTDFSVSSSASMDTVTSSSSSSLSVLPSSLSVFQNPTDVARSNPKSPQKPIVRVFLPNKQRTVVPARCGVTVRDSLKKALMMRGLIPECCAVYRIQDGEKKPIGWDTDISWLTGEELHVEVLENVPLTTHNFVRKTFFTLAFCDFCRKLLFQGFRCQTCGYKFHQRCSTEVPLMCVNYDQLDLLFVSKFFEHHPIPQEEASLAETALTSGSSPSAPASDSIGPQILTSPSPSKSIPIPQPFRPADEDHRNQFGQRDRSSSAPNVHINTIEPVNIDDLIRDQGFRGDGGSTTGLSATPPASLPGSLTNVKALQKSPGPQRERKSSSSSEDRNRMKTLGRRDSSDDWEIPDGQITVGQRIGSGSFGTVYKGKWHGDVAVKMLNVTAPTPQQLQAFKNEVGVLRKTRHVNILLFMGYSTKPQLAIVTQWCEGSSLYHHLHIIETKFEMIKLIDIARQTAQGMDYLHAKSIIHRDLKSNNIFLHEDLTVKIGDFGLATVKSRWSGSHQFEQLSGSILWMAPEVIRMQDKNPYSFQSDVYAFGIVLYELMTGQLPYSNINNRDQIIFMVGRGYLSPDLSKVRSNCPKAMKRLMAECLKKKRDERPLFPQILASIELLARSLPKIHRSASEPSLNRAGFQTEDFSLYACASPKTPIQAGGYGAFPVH
| Structure (SMILES) | remaining activity |
| --- | --- |
| CCN(CC)CCNC(=O)c1c(C)[nH]c(/C=C2\C(=O)Nc3ccc(Cl)cc32)c1C | 109% |
| CN(C)C[C@H]1CCn2c(c(C3=C(c4cn(C)c5ccccc45)C(=O)NC3=O)c3ccccc32)C1 | 95.2% |
| COc1cc2ncnc(Nc3cccc(Cl)c3)c2cc1OC | 96% |
| c1ccc(-c2[nH]ncc2-c2ccnc3ccccc23)nc1 | 95.7% |
| Nc1cccc(-c2cc3c(Oc4cccc(O)c4)ncnc3[nH]2)c1 | 53.2% |
| N#C/C(=C\c1ccc(O)c(O)c1)C(=O)NCc1ccccc1 | 109% |

Block 2 — cell line: Huh-7; tested at: 10 µM; time: 24 h
| Structure (SMILES) | viability [%] |
| --- | --- |
| CCCc1cc(=O)[nH]c(=S)[nH]1 | 105 |
| Oc1cccc(O)c1 | 99.6 |
| NCC[C@H](O)C(=O)N[C@@H]1C[C@H](N)[C@@H](O[C@H]2O[C@H](CN)[C@@H](O)[C@H](O)[C@H]2O)[C@H](O)[C@H]1O[C@H]1O[C@H](CO)[C@@H](O)[C@H](N)[C@H]1O | 96.8 |
| CC(C)/N=c1\cc2n(-c3ccc(Cl)cc3)c3ccccc3nc-2cc1Nc1ccc(Cl)cc1 | 88.5 |
| CCOc1ccc2nc(S(N)(=O)=O)sc2c1 | 98.8 |
| CC(C)(C)NC[C@H](O)COc1cccc2c1CCCC2=O | 100 |
| CCC(NC(C)C)C(O)c1ccc(O)c(O)c1 (centres unmarked) | 102 |
| CC[C@H]1OC(=O)[C@H](C)[C@@H](O[C@H]2C[C@@](C)(OC)[C@@H](O)[C@H](C)O2)[C@H](C)[C@@H](O[C@@H]2O[C@H](C)C[C@H](N(C)C)[C@H]2O)[C@](C)(O)C[C@@H](C)/C(=N\OCOCCOC)[C@H](C)[C@@H](O)[C@]1(C)O | 101 |
| OC(CCN1CCCCC1)(c1ccccc1)C1C[C@@H]2C=C[C@H]1C2 (some centres unmarked) | 96.8 |
| CC[C@]1(O)C[C@H]2CN(CCc3c([nH]c4ccccc34)[C@@](C(=O)OC)(c3cc4c(cc3OC)N(C=O)[C@H]3[C@@](O)(C(=O)OC)[C@H](OC(C)=O)[C@]5(CC)C=CCN6CC[C@]43[C@@H]65)C2)C1 | 60.9 |
| CCOc1ccc2ccccc2c1C(=O)N[C@@H]1C(=O)N2[C@@H]1SC(C)(C)[C@@H]2C(=O)O | 98 |

Block 3 — species: mouse; sample: microsomes or S9; tested at: 2 µM; time: 0.5 h
| SMILES | remaining compound |
| --- | --- |
| O=c1[nH]c(N2CCCC2)nc2ncc3c(c12)CCC3 | 10.5% |
| Cc1nn(C)c(-c2nc(-c3ccc(Br)o3)no2)c1Cl | 1.78% |
| CC(C)n1nc(-c2nnc(-c3cccc(Br)c3)[nH]2)c2ccccc2c1=O | 5.63% |
| O=S(=O)(NCCn1c(-c2ccncc2)nc2ccccc21)c1ccc(Br)s1 | 1.7% |
| O=C(COc1ccccc1F)NC[C@H]1CC[C@H](c2ncc(Cl)cc2-c2ccncc2)CC1 | 0.195% |

Block 4 — tested at: 1 µM
SMILES: Cc1nc(N2CC[C@@H](O)C2)ncc1-c1cc(C(F)(F)F)cc2[nH]ncc12
| target | effect on | technique | remaining binding |
| --- | --- | --- | --- |
| Citron Rho-interacting kinase (CIT, Homo sapiens, UniProt O14578) | binding | competition with immobilised ligand | 82% |
| Serine/threonine-protein kinase BRSK1 (BRSK1, Homo sapiens, UniProt Q8TDC3) | binding | competition with immobilised ligand | 100% |
| Inhibitor of nuclear factor kappa-B kinase subunit beta (IKBKB, Homo sapiens, UniProt O14920) | cell-free assay | competition with immobilised ligand | 77% |
| Serine/threonine-protein kinase 32A (STK32A, Homo sapiens, UniProt Q8WU08) | binding | competition with immobilised ligand | 85% |
| Dual specificity mitogen-activated protein kinase kinase 6 (MAP2K6, Homo sapiens, UniProt P52564) | binding | competition with immobilised ligand | 100% |
| Serine/threonine-protein kinase ULK3 (ULK3, Homo sapiens, UniProt Q6PHR2) | binding | competition with immobilised ligand | 78% |
| Leucine-rich repeat serine/threonine-protein kinase 2 (LRRK2, Homo sapiens, UniProt Q5S007) | binding | competition with immobilised ligand | 58% |
| Calcium/calmodulin-dependent protein kinase type IV (CAMK4, Homo sapiens, UniProt Q16566) | binding | competition with immobilised ligand | 100% |
| Serine/threonine-protein kinase tousled-like 2 (TLK2, Homo sapiens, UniProt Q86UE8) | cell-free assay | competition with immobilised ligand | 100% |
| Dual serine/threonine and tyrosine protein kinase (DSTYK, Homo sapiens, UniProt Q6XUX3) | binding | competition with immobilised ligand | 88% |
| Serine/threonine-protein kinase MRCK gamma (CDC42BPG, Homo sapiens, UniProt Q6DT37) | – | competition binding | 100% |
| Dual specificity tyrosine-phosphorylation-regulated kinase 2 (DYRK2, Homo sapiens, UniProt Q92630) | binding | competition with immobilised ligand | 79% |
| RAC-gamma serine/threonine-protein kinase (AKT3, Homo sapiens, UniProt Q9Y243) | binding | competition with immobilised ligand | 77% |
| Cyclin-dependent kinase 7 (CDK7, Homo sapiens, UniProt P50613) | binding | competition with immobilised ligand | 68% |
| Cyclin-dependent kinase 4, with cyclin D1 (CDK4, Homo sapiens, UniProt P11802) | binding | competition with immobilised ligand | 71% |
| ALK tyrosine kinase receptor (ALK, Homo sapiens, UniProt Q9UM73, L1196M) | cell-free assay | competition with immobilised ligand | 98% |

A few entries again (block 3):
| SMILES | remaining compound |
| --- | --- |
| Cc1nn(C)c(-c2nc(-c3ccc(Br)o3)no2)c1Cl | 1.78% |
| O=C(COc1ccccc1F)NC[C@H]1CC[C@H](c2ncc(Cl)cc2-c2ccncc2)CC1 | 0.195% |
| O=S(=O)(NCCn1c(-c2ccncc2)nc2ccccc21)c1ccc(Br)s1 | 1.7% |
| O=c1[nH]c(N2CCCC2)nc2ncc3c(c12)CCC3 | 10.5% |
| CC(C)n1nc(-c2nnc(-c3cccc(Br)c3)[nH]2)c2ccccc2c1=O | 5.63% |
